Experimental data from different studies.
Compare with care: the assays were run in different laboratories. Several values in a cell are separate wells, animals, samples, runs or records.
Target: Cytochrome P450 2C9 (CYP2C9, Homo sapiens, UniProt P11712)
UniProt P11712, sequence (whole entry, looked up): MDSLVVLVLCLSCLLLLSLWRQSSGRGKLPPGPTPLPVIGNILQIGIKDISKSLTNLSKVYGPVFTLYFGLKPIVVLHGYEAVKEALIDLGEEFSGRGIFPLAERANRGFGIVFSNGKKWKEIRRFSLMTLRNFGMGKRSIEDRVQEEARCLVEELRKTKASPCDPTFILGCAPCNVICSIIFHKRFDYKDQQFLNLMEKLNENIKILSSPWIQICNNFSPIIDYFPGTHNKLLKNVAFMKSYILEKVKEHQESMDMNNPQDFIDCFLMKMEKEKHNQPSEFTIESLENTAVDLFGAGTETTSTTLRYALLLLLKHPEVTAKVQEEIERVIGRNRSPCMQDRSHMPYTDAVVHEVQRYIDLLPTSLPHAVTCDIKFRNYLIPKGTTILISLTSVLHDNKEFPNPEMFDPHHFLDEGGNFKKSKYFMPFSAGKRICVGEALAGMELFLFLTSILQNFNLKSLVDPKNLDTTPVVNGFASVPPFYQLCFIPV

`Brc1ccccc1-c1nnc(CSc2nnnn2-c2ccccc2)o1` has an inhibition of 86% (enzyme activity, inhibitor, fluorescence; insect cell microsomes; 10 µM).
`Cc1ncncc1-c1ccc(C(=O)N2CC[C@H](C(=O)Nc3cc(F)c(F)c(F)c3)C2)[nH]1` has an inhibition of 90% (enzyme activity, inhibitor; human, liver microsomes; 10 µM, 10 min, pH 7.4).
For `C=CC(=O)Nc1cc(Nc2nccc(-c3cn(C)c4ccccc34)n2)c(OCC(F)(F)F)nc1N(C)CCN(C)C`, “activity vs control” read 94.5% (enzyme activity, inhibitor; human, liver microsomes; 0.1 µM).
`Cc1ccc(OCC(=O)N(Cc2cccs2)c2ccn[nH]2)cc1` gave an inhibition of 39% (enzyme activity, inhibitor, fluorescence; Sf9; 10 µM).
The remaining activity of `CCC1CC2C(C)=CC3C(=O)CCCC3C=CC(C)=CC2C(=O)O1` (stereo not drawn) is reported as 102% (human liver microsomes; 10 µM, 10 min, pH 7.4, together with: diclofenac 1 µM; reference: untreated).
`CCC(=O)N(C)c1ccc(Cl)c(Cl)c1` has a half-life of greater than 3 h (recombinant enzyme Supersomes; 1 µM, together with: NADPH).
`COC(=O)c1ccc2c(c1)NC(=O)/C2=C(\Nc1ccc2c(c1)CCN2C(=O)CN1CCOCC1)c1ccccc1` gave an IC50 of 35.2 µM (10 min, together with: diclofenac 5 µM).
`O=C(CS(=O)(=O)Cc1ccco1)C12CC3CC(CC(C3)C1)C2` has an inhibition of 52% (10 µM).
For `COc1cc(OC)c(F)c(/C=C/c2cnc3ccn(S(=O)(=O)c4cn(CCF)cn4)c3n2)c1F`, the inhibition was 21% (enzyme activity, inhibitor; human, liver microsomes; 10 µM, 20 min, pH 7.4).
For `NS(=O)(=O)NCC(F)(F)c1ccccc1F`, the IC50 was > 120 µM and > 74 µM (enzyme activity, inhibitor, fluorescence).
`C[N+]1(CC(=O)OC2CCCCCCCCCCC2)CCCCC1` has an IC50 of greater than 10 µM (inhibitor).
`CC(C)(C)[C@H](NC(=O)[C@H](CCONC(=N)N)NC(=O)Cc1ccc(CNC(=N)N)cc1)C(=O)N[C@@H](CCONC(=N)N)C(=O)NCc1ccc(C(=N)N)cc1`: enzyme activity “no effect” (human liver microsomes; 50 µM).

Repeated from above:
`C[N+]1(CC(=O)OC2CCCCCCCCCCC2)CCCCC1` has an IC50 of greater than 10 µM (inhibitor).
`CC(C)(C)[C@H](NC(=O)[C@H](CCONC(=N)N)NC(=O)Cc1ccc(CNC(=N)N)cc1)C(=O)N[C@@H](CCONC(=N)N)C(=O)NCc1ccc(C(=N)N)cc1`: enzyme activity “no effect” (human liver microsomes; 50 µM).
